Experimental data gathered from unrelated publications.
Every numbered part comes from another study and shows a few of its results, in no order.
Sequence of UniProt O75676 (whole entry, looked up): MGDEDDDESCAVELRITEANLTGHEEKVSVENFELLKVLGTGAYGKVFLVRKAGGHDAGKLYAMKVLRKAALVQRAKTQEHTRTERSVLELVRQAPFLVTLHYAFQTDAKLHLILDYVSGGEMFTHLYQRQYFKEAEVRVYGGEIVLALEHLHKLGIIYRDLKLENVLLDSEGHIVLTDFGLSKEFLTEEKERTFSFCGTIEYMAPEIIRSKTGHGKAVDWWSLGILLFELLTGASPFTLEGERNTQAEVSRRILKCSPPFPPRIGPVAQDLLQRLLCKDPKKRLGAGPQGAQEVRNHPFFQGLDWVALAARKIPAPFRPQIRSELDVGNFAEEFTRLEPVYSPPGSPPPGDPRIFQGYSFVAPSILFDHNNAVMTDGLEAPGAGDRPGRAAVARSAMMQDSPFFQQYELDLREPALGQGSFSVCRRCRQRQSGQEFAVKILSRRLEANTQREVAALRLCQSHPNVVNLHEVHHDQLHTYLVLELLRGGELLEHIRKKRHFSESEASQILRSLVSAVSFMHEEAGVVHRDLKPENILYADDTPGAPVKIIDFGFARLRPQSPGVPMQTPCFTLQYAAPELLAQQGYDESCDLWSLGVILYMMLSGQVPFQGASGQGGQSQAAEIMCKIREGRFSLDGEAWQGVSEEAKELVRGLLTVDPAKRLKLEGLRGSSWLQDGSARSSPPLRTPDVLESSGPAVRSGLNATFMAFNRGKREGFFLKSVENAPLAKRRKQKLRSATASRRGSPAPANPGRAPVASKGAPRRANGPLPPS
Sequence of UniProt P08581 (whole entry, looked up): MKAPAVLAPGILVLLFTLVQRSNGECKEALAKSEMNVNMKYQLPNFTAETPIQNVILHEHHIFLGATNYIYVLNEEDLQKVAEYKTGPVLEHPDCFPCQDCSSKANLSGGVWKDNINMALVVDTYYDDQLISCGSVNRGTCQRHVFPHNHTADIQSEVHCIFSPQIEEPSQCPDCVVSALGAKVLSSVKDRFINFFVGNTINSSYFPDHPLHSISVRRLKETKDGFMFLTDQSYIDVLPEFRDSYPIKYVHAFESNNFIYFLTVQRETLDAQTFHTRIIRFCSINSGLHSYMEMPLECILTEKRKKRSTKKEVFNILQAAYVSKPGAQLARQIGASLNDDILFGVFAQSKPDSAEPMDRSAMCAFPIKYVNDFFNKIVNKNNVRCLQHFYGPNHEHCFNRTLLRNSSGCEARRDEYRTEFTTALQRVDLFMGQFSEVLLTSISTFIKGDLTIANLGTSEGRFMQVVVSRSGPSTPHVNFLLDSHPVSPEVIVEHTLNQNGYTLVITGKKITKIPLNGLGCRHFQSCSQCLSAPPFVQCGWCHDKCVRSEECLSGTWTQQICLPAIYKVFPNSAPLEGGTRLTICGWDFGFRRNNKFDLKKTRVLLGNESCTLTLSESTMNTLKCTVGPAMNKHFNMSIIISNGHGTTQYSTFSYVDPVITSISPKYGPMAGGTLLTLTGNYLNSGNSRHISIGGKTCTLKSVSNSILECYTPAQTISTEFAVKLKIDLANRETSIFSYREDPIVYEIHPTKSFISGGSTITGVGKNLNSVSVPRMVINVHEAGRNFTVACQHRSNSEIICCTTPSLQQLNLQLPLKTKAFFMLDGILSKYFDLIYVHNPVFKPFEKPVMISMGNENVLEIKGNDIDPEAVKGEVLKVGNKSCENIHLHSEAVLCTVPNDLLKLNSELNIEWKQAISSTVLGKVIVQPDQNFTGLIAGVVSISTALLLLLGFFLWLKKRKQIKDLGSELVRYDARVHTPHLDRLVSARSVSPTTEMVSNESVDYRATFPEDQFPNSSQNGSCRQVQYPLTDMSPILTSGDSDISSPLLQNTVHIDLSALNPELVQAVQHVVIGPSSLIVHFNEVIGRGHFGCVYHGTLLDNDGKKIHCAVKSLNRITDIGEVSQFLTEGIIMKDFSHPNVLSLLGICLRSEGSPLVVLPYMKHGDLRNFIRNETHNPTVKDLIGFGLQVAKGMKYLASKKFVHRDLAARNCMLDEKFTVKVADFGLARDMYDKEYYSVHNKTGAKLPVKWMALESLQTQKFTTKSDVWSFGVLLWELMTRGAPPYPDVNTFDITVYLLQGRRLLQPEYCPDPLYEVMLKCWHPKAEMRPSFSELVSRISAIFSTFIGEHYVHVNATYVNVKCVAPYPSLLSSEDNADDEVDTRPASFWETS
Sequence of UniProt Q15759 (whole entry, looked up): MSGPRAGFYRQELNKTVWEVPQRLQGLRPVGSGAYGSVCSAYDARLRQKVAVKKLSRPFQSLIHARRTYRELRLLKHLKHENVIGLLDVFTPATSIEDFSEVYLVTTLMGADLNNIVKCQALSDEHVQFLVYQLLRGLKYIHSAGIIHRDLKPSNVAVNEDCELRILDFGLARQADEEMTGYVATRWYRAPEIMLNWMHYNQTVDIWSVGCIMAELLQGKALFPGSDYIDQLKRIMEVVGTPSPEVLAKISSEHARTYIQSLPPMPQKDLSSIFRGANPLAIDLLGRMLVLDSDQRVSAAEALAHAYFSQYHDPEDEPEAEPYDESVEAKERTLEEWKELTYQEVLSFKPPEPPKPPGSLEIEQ
Sequence of UniProt Q9C098 (whole entry, looked up): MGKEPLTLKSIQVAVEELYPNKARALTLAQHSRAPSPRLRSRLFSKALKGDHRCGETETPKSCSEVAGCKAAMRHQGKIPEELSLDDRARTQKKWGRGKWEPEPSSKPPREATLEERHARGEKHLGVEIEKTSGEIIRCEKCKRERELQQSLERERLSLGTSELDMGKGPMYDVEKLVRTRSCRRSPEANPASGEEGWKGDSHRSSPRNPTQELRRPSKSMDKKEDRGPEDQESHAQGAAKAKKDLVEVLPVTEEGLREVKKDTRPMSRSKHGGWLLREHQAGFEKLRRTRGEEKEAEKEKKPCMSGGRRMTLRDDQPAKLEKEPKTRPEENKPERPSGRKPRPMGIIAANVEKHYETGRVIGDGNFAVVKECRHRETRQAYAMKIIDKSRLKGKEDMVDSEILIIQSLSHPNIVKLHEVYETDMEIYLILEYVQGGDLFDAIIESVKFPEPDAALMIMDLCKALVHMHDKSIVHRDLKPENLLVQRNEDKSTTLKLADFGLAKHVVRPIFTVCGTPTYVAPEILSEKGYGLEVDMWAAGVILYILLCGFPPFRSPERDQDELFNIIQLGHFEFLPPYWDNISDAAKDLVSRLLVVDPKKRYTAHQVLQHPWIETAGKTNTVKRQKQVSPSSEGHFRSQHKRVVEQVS
Sequence of UniProt P21802 (whole entry, looked up): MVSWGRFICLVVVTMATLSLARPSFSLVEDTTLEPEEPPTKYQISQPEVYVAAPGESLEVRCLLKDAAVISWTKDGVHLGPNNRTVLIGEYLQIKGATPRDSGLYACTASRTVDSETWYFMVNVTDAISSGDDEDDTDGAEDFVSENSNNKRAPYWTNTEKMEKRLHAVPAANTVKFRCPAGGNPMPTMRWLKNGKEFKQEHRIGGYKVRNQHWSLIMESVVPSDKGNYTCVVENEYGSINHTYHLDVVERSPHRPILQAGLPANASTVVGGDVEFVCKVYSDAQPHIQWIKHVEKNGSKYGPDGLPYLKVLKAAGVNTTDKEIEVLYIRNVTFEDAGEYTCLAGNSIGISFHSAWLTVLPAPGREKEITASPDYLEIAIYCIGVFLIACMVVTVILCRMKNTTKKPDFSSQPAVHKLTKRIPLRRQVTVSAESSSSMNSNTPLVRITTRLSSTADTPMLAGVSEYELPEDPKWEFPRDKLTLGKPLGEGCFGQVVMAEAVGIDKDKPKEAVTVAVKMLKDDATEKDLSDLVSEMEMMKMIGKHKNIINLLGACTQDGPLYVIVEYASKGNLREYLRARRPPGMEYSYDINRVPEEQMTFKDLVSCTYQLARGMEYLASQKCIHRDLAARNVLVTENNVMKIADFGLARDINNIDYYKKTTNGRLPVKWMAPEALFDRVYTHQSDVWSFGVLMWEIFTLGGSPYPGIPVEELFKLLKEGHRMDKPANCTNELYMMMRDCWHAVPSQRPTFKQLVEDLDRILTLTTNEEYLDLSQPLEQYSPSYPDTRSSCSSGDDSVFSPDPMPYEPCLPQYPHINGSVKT
Sequence of UniProt P28482 (whole entry, looked up): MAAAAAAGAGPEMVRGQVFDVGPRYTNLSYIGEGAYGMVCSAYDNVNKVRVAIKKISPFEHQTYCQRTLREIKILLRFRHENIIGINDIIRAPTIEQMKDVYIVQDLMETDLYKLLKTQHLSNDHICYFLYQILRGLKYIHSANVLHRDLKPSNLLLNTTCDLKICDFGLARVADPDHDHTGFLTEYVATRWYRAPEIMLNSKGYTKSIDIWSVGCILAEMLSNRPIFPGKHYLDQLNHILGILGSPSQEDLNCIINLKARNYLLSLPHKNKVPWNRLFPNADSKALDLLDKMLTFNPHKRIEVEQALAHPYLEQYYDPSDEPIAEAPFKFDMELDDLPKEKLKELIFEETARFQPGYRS

Series 1
SMILES: Cc1c(NC(=O)c2cc(C(N)=O)nc3cc(F)ccc23)c(C(F)(F)F)nn1Cc1ccc(C(C)(C)C)cc1
Read-out: cell-free assay
Technique: competition with immobilised ligand
Concentration: 1 µM
target	remaining binding [%]
Rho-associated protein kinase 1 (ROCK1, Homo sapiens, UniProt Q13464)	100
Tyrosine-protein kinase ABL1, non-phosphorylated (ABL1, Homo sapiens, UniProt P00519)	96
Dual specificity protein kinase CLK1 (CLK1, Homo sapiens, UniProt P49759)	62
Receptor-interacting serine/threonine-protein kinase 1 (RIPK1, Homo sapiens, UniProt Q13546)	100
Tyrosine-protein kinase Yes (YES1, Homo sapiens, UniProt P07947)	100
Epidermal growth factor receptor (EGFR, Homo sapiens, UniProt P00533, L861Q)	65
Hepatocyte growth factor receptor (MET, Homo sapiens, UniProt P08581)	100
Serine/threonine-protein kinase DCLK3 (DCLK3, Homo sapiens, UniProt Q9C098)	100
Ribosomal protein S6 kinase alpha-4, C-terminal kinase domain (RPS6KA4, Homo sapiens, UniProt O75676)	100
Fibroblast growth factor receptor 2 (FGFR2, Homo sapiens, UniProt P21802)	100
Phosphatidylinositol 4-phosphate 3-kinase C2 domain-containing subunit beta (PIK3C2B, Homo sapiens, UniProt O00750)	86
Serine/threonine-protein kinase BRSK1 (BRSK1, Homo sapiens, UniProt Q8TDC3)	100

Series 2
Target: Calcium/calmodulin-dependent protein kinase type II subunit alpha (CAMK2A, Homo sapiens, UniProt Q9UQM7)
Sequence of UniProt Q9UQM7 (whole entry, looked up): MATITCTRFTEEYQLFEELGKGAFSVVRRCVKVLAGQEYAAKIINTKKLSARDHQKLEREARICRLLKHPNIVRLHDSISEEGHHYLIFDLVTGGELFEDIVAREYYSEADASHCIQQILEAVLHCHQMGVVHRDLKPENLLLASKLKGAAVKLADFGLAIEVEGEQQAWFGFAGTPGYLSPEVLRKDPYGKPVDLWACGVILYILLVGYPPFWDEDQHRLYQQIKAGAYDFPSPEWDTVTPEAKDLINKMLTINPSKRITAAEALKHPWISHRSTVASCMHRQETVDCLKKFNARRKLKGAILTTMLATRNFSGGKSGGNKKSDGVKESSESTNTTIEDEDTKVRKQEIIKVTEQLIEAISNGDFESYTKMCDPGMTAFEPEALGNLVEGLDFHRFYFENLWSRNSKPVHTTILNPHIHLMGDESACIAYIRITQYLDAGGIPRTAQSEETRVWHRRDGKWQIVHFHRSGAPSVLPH
Read-out: enzyme activity
Mode: inhibitor
Concentration: 10 µM
SMILES	inhibition
CC(C)C[C@H](NC(=O)CN)C(=O)O	10%
CO/N=C(\C(=O)N[C@@H]1C(=O)N2C(C(=O)OCOC(=O)C(C)(C)C)=C(/C=C\c3scnc3C)CS[C@H]12)c1csc(N)n1	-1%
CC(C(=O)O)c1ccc2c(c1)CC(=O)c1ccccc1S2 (centres unmarked)	-5%
COc1cc(/C=C/C(=O)O[C@H]2[C@H](O)[C@@H](CO)O[C@@]2(CO)O[C@H]2O[C@H](COC(=O)c3ccc(O)cc3)[C@@H](O)[C@H](O)[C@H]2O)cc(OC)c1O	-9%
COc1cc(/C=C/C(=O)OC[C@H]2O[C@@H](O[C@@H]3[C@@H](O)[C@H](O)[C@@H](CO)O[C@H]3c3c(OC)cc4oc(-c5ccc(O)cc5)cc(=O)c4c3O)[C@H](O)[C@@H](O)[C@@H]2O)ccc1O	-29%
CCCC(=O)O[C@]1(C(=O)CO)CC[C@H]2[C@@H]3CCC4=CC(=O)CC[C@]4(C)[C@H]3[C@@H](O)C[C@@]21C	4%
CC(=O)CCc1ccccc1	-63%
Cc1ncc([N+](=O)[O-])n1CCOC(=O)c1ccccc1	-9%
COc1cc2c(cc1OC)[C@@H](Cc1cc(OC)c(OC)c(OC)c1)[N+](C)(CCCOC(=O)CC/C=C/CCC(=O)OCCC[N+]1(C)CCc3cc(OC)c(OC)cc3[C@H]1Cc1cc(OC)c(OC)c(OC)c1)CC2 (some centres unmarked)	11%

Series 3
Compound: O=Nc1c(-c2c(O)[nH]c3cc(Br)ccc23)[nH]c2ccccc12
Read-out: enzyme activity
Mode: inhibitor
Concentration: 0.5 µM
Baseline: control
target	remaining activity [%]
Serine/threonine-protein kinase Nek3 (NEK3, Homo sapiens, UniProt P51956)	84.4
Mitogen-activated protein kinase 14 (MAPK14, Homo sapiens, UniProt Q16539)	105
Dual specificity mitogen-activated protein kinase kinase 1 (MAP2K1, Homo sapiens, UniProt Q02750)	103
Calcium/calmodulin-dependent protein kinase type 1B (PNCK, Homo sapiens, UniProt Q6P2M8)	105
cGMP-dependent protein kinase 2 (PRKG2, Homo sapiens, UniProt Q13237)	69.1
Serine/threonine-protein kinase PLK3 (PLK3, Homo sapiens, UniProt Q9H4B4)	95.3
Cyclin-dependent kinase 1, with cyclin A (CDK1, Homo sapiens, UniProt P06493)	59.7
Dual specificity protein kinase CLK3 (CLK3, Homo sapiens, UniProt P49761)	71.2
Ribosomal protein S6 kinase alpha-4 (RPS6KA4, Homo sapiens, UniProt O75676)	56.1
Hepatocyte growth factor receptor (MET, Homo sapiens, UniProt P08581)	70
Mitogen-activated protein kinase 1 (MAPK1, Homo sapiens, UniProt P28482)	113
Mitogen-activated protein kinase 11 (MAPK11, Homo sapiens, UniProt Q15759)	99.6
Dual specificity protein kinase CLK4 (CLK4, Homo sapiens, UniProt Q9HAZ1)	97

Series 4
Organism: Sarcocystis neurona
Read-out: parasite activity
Concentration: 10 µM
Time: 96 h
SMILES	activity class
c1ccc(CC2=NCCN2)cc1	inactive
CCCC(CCC)C(=O)O	inactive
C/C=C1\[C@H]2C=C(C)C[C@]1(N)c1ccc(=O)[nH]c1C2	inactive
CCOc1ccc2ccccc2c1C(=O)N[C@@H]1C(=O)N2[C@@H]1SC(C)(C)[C@@H]2C(=O)O	inactive
CCC(C)n1ncn(-c2ccc(N3CCN(c4ccc(OCC5COC(Cn6cncn6)(c6ccc(Cl)cc6Cl)O5)cc4)CC3)cc2)c1=O (centres unmarked)	inactive
Nc1ncnc2c1ncn2[C@@H]1O[C@H](CO)[C@@H](O)[C@@H]1O	inactive
CC(C)(C)NC(=O)[C@@H]1CN(Cc2cccnc2)CCN1C[C@@H](O)C[C@@H](Cc1ccccc1)C(=O)N[C@H]1c2ccccc2C[C@H]1O	inactive

Excerpt of the above (series 3):
target	remaining activity [%]
Dual specificity protein kinase CLK3 (CLK3, Homo sapiens, UniProt P49761)	71.2
Ribosomal protein S6 kinase alpha-4 (RPS6KA4, Homo sapiens, UniProt O75676)	56.1
Hepatocyte growth factor receptor (MET, Homo sapiens, UniProt P08581)	70
